# Experimental data of several laboratories.
# Each line is one published result; not all experiments were run side by side. Numbers after ± are the reported error.
# CALM1 Ca2+-bound N-lobe: Calmodulin-1, Ca2+-bound N-lobe (CALM1, Homo sapiens, UniProt P0DP23)
# GUK1: GUK1 (Homo sapiens, UniProt Q16774)
# Sequence of UniProt Q16774 (whole entry, looked up): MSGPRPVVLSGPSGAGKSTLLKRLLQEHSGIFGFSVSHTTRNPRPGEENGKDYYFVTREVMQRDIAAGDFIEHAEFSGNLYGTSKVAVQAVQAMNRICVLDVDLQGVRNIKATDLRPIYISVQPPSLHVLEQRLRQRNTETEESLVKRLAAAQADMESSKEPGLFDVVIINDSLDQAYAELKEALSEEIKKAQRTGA
SMILES,target,test,system,conditions,ΔH [kcal/mol]
CC[C@H](C)[C@H](NC(=O)[C@H](CCCCN)NC(=O)CNC(=O)[C@@H](NC(=O)[C@@H](NC(=O)[C@H](CCSC)NC(=O)[C@H](Cc1c[nH]cn1)NC(=O)CN)[C@@H](C)O)C(C)C)C(=O)N[C@@H](Cc1ccc(O)cc1)C(=O)N[C@@H](C)C(=O)N[C@@H](C)C(=O)N[C@@H](CCSC)C(=O)N[C@@H](CCSC)C(=O)N[C@H](C(=O)N[C@@H](CCSC)C(=O)N[C@@H](CCC(=O)O)C(=O)N[C@@H](Cc1ccc(O)cc1)C(=O)N[C@@H](C)C(=O)N[C@@H](CCCNC(=N)N)C(=O)N[C@@H](CCC(N)=O)C(=O)N[C@@H](CO)C(=O)N[C@@H](CCCCN)C(=O)N[C@@H](C)C(=O)N[C@@H](CCCCN)C(=O)N[C@@H](CCCCN)C(=O)N[C@@H](CC(C)C)C(=O)N[C@@H](CCC(N)=O)C(=O)N[C@@H](C)C(=O)N[C@@H](CCSC)C(=O)N[C@@H](CCCNC(=N)N)C(=O)O)[C@@H](C)CC,CALM1 Ca2+-bound N-lobe,"binding, isothermal titration calorimetry",,"pH 7.4, 15 °C, N-lobe, CaV2.1 IQ domain, added: Ca2+",-4.93 ± 0.21
CC[C@H](C)[C@H](NC(=O)[C@H](CCC(=O)O)NC(=O)[C@H](CCC(=O)O)NC(=O)[C@@H]1CCCN1C(=O)[C@H](CC(=O)O)NC(=O)[C@H](C)NC(=O)[C@H](CCC(N)=O)NC(=O)[C@@H](NC(=O)[C@H](C)NC(=O)[C@@H](NC(=O)[C@H](CO)NC(=O)[C@@H](NC(=O)[C@H](CCCCN)NC(=O)[C@@H](N)Cc1ccc(O)cc1)[C@@H](C)O)C(C)C)[C@@H](C)O)C(=O)N[C@H](C(=O)N[C@H](C(=O)N[C@@H](CC(C)C)C(=O)N[C@@H](CC(=O)O)C(=O)N[C@@H](CC(=O)O)C(=O)N[C@@H](CC(=O)O)C(=O)N[C@@H](CC(=O)O)C(=O)O)C(C)C)[C@@H](C)CC,"Small ubiquitin-related modifier 2, N-terminally truncated (Homo sapiens, UniProt P61956, C48A)","binding, ITC",Tris buffer,"pH 7.4, ΔN-SUMO2",1.48 ± 0.09
CC[C@H](C)[C@H](NC(=O)[C@H](C)NC(=O)[C@H](CCSC)NC(=O)[C@H](C)NC(=O)[C@H](C)NC(=O)[C@H](Cc1ccc(O)cc1)NC(=O)[C@@H](NC(=O)[C@H](CCCCN)NC(=O)CNC(=O)[C@@H](NC(=O)[C@@H](NC(=O)[C@H](CCSC)NC(=O)[C@H](Cc1c[nH]cn1)NC(=O)CN)[C@@H](C)O)C(C)C)[C@@H](C)CC)C(=O)N[C@@H](CCSC)C(=O)N[C@@H](CCC(=O)O)C(=O)N[C@@H](Cc1ccc(O)cc1)C(=O)N[C@@H](Cc1ccc(O)cc1)C(=O)N[C@@H](CCCNC(=N)N)C(=O)N[C@@H](CCC(N)=O)C(=O)N[C@@H](CO)C(=O)N[C@@H](CCCCN)C(=O)N[C@@H](C)C(=O)N[C@@H](CCCCN)C(=O)N[C@@H](CCCCN)C(=O)N[C@@H](CC(C)C)C(=O)N[C@@H](CCC(N)=O)C(=O)N[C@@H](C)C(=O)N[C@@H](CCSC)C(=O)N[C@@H](CCCNC(=N)N)C(=O)O,CALM1 Ca2+-bound N-lobe,"binding, isothermal titration calorimetry",,"pH 7.4, 15 °C, N-lobe, CaV2.1 IQ domain, added: Ca2+",-3.03 ± 0.22
COc1cc(/C=C/C(=O)/C=C/c2ccc(O)c(OC)c2)ccc1O,haemin,"binding, isothermal titration calorimetry",,"pH 7.4, 37 °C",-23.85 ± 0.0311
CC[C@H](C)[C@H](NC(=O)[C@H](CCCCN)NC(=O)CNC(=O)[C@@H](NC(=O)[C@@H](NC(=O)[C@H](CCSC)NC(=O)[C@H](Cc1c[nH]cn1)NC(=O)CN)[C@@H](C)O)C(C)C)C(=O)N[C@@H](Cc1ccc(O)cc1)C(=O)N[C@@H](C)C(=O)N[C@@H](C)C(=O)N[C@@H](CCSC)C(=O)N[C@@H](CCSC)C(=O)N[C@H](C(=O)N[C@@H](CCSC)C(=O)N[C@@H](CCC(=O)O)C(=O)N[C@@H](Cc1ccc(O)cc1)C(=O)N[C@@H](Cc1ccc(O)cc1)C(=O)N[C@@H](CCCNC(=N)N)C(=O)N[C@@H](CCC(N)=O)C(=O)N[C@@H](CO)C(=O)N[C@@H](CCCCN)C(=O)N[C@@H](C)C(=O)N[C@@H](CCCCN)C(=O)N[C@@H](CCCCN)C(=O)N[C@@H](CC(C)C)C(=O)N[C@@H](CCC(N)=O)C(=O)N[C@@H](C)C(=O)N[C@@H](CCSC)C(=O)N[C@@H](CCCNC(=N)N)C(=O)O)[C@@H](C)CC,"Calmodulin-1, Ca2+-bound C-lobe (CALM1, Homo sapiens, UniProt P0DP23)","binding, competition ITC",,"concentration not given, 15 °C, endothermic, added: pre-formed Ca2+/N-lobe–CaV2.1 IQ complex",6.98 ± 0.12
Nc1ncnc2c1ncn2[C@@H]1O[C@H](COP(=O)(O)OP(=O)(O)O)[C@@H](O)[C@H]1O,GUK1,ITC,,molar ratio 3.279,-0.129
COc1cc(/C=C/C(=O)C(=Cc2ccc([N+](=O)[O-])cc2)C(=O)/C=C/c2ccc(O)c(OC)c2)ccc1O,haemin,"binding, isothermal titration calorimetry",,"pH 7.4, 37 °C",-23.6 ± 0.136
Nc1ncnc2c1ncn2[C@@H]1O[C@H](CO[P@](=O)(O)O[P@](=O)(O)O[P@@](=O)(O)S)[C@@H](O)[C@H]1O,GUK1,ITC,,molar ratio 1.741,-0.6
COc1cc(/C=C/c2cc(/C=C/c3ccc(O)c(OC)c3)n(-c3cccc([N+](=O)[O-])c3)n2)ccc1O,haemin,"binding, isothermal titration calorimetry",,"pH 7.4, 37 °C",-23.877 ± 0.0191
